Results pooled from the literature.
Lines come from different studies, so protocols differ. Numbers after ± are the reported error.
UniProt Q9Y6E0, sequence (whole entry, looked up): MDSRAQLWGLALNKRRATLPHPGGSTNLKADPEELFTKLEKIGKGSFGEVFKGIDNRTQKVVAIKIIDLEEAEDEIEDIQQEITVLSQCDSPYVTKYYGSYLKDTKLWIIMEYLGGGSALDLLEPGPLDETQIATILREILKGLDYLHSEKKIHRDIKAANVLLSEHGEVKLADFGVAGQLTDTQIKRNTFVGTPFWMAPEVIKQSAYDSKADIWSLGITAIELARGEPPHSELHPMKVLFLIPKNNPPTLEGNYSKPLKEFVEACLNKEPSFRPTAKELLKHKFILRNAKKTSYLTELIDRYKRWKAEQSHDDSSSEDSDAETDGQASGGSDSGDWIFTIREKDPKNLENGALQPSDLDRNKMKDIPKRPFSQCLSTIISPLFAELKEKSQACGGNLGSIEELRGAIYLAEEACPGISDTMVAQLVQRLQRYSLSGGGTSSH

| Compound | tested on | test | test system | setting | how to read | quantity | result |
| --- | --- | --- | --- | --- | --- | --- | --- |
| CC(C)C[C@H](NC(=O)[C@@H](N)Cc1ccccc1)C(=O)N[C@@H](C)C(=O)N[C@H]1CSCc2cccc(n2)CSC[C@@H](C(=O)N[C@H](C(=O)NCC(=O)N[C@@H](CO)C(=O)N[C@@H](Cc2c[nH]c3ccccc23)C(=O)N[C@@H](CCCCNC(=O)CN2CCN(CC(=O)O)CCN(CC(=O)O)CCN(CC(=O)O)CC2)C(N)=O)[C@@H](C)O)NC(=O)[C@H](Cc2c[nH]cn2)NC(=O)[C@H]([C@@H](C)O)NC(=O)[C@H](CCC(=O)O)NC(=O)[C@@H]2CCCN2C1=O [gallium-68 labelled] | – | PET/CT imaging | BALB/c mouse, male, A-375 tumour, tumour | iv, 3.7 MBq, 1 h | – | tumour uptake | 2.1 %ID/g |
| CCCC[C@H](NC(=O)CN1CCC(NC(=O)CN2CCN(CC(N)=O)CCN(CC(N)=O)CCN(CC(N)=O)CC2)CC1)C(=O)N[C@H]1CC(=O)NCCCC[C@@H](C(N)=O)NC(=O)[C@H](Cc2c[nH]c3ccccc23)NC(=O)[C@H](CCCNC(=N)N)NC(=O)[C@@H](Cc2ccccc2)NC(=O)[C@H](Cc2c[nH]cn2)NC1=O [lead-203 labelled] | – | SPECT/CT | male C57BL/6J mice, B16-F10 tumour, tumour | intravenous, 20 pmol, 2 h, 203Pb-labelled | – | SUVmean | 2.35 SUV |
| CC[C@H](C)[C@H](NC(=O)[C@H](CO)NC(=O)[C@H](Cc1ccc(O)cc1)NC(=O)[C@H](Cc1ccc(O)cc1)NC(=O)[C@H](CC(N)=O)NC(=O)CNC(=O)[C@H](CO)NC(=O)[C@H](Cc1ccc(O)cc1)NC(=O)[C@H](CO)NC(=O)[C@H](CO)NC(=O)[C@H](CC(N)=O)NC(=O)COCCOCCNC(=O)CN1CCN(CC(=O)O)CCN(CC(=O)O)CCN(CC(=O)O)CC1)C(=O)N[C@@H](CC(C)C)C(N)=O [copper-64 labelled] | – | dynamic PET | mouse, tamoxifen-induced PDAC, tumor | intravenous, 0.1 µg/mouse, 17.5 min | – | tumour uptake | 8.47 %ID/mL |
| Cc1cc(O)cc(C)c1C[C@H](N)C(=O)N[C@H](C)C(=O)N[C@@H](Cc1ccccc1)C(=O)N[C@@H](CCCN)C(=O)NCCCCCC(=O)N[C@@H](CCCCNC(=O)CN1CCN(CC(=O)O)CCN(CC(=O)O)CCN(CC(=O)O)CC1)C(N)=O [indium-111 labelled] | – | – | CD-1 mouse plasma | 30 min, 37 °C | – | unbound fraction | 0.686 |
| CC[C@H](C)[C@@H]([C@@H](CC(=O)N1CCC[C@H]1[C@H](OC)[C@@H](C)C(=O)N[C@H](C)[C@@H](O)c1ccccc1)OC)N(C)C(=O)[C@@H](NC(=O)[C@H](C(C)C)N(C)C(=O)OCc1ccc(NC(=O)[C@H](CCCNC(N)=O)NC(=O)[C@@H](NC(=O)CCCCCN2C(=O)CC(SC[C@H](NC(=O)[C@H](CC(=O)O)NC(=O)[C@H](Cc3ccc(O)cc3)NC(=O)[C@H](Cc3c[nH]c4ccccc34)NC(=O)[C@@H](N)CCCNC(=N)N)C(=O)O)C2=O)C(C)C)cc1)C(C)C (stereo partly drawn) | – | – | C57BL/6 mouse, healthy, heart | intraperitoneal, 2.5 mg/kg, 24 h | – | concentration | not detected |
| COc1ccccc1-c1n[nH]c2nc(NC3CCN(C(=O)Cc4ccc(F)cc4F)CC3)ncc12 | – | bead binding, competition bead pull-down, measured: LMJF.28.2750 | Leishmania donovani extract | 10 µM | baseline: vehicle | relative abundance | 0.97 |
| CCCC[C@H](NC(=O)CN1CCC(NC(=S)Nc2ccc(C[C@H]3CN(CC(N)=O)CCN(CC(N)=O)CCN(CC(N)=O)CCN3CC(N)=O)cc2)CC1)C(=O)N[C@H]1CC(=O)NCCCC[C@@H](C(N)=O)NC(=O)[C@H](Cc2c[nH]c3ccccc23)NC(=O)[C@H](CCCNC(=N)N)NC(=O)[C@@H](Cc2ccccc2)NC(=O)[C@H](Cc2c[nH]cn2)NC1=O [lead-203 labelled] | – | SPECT/CT | male C57BL/6J mice, B16-F10 tumour, tumour | intravenous, 20 pmol, 2 h, 203Pb-labelled | – | SUVmean | 0.6 SUV |
| N=C(N)NCCC[C@@H]1NC(=O)[C@H](CCCCNC(=O)CCC(NC(=S)Nc2ccc(CC3CN(CC(=O)O)CCN(CC(=O)O)CCN(CC(=O)O)CCN3CC(=O)O)cc2)C(=O)NCCCC[C@@H]2NC(=O)[C@@H](Cc3ccc(O)cc3)NC(=O)[C@H](CC(=O)O)NC(=O)CNC(=O)[C@H](CCCNC(=N)N)NC2=O)NC(=O)[C@@H](Cc2ccc(O)cc2)NC(=O)[C@H](CC(=O)O)NC(=O)CNC1=O (stereo partly drawn) [scandium-44 labelled] | – | PET imaging ROI | female athymic nude mice, U-87 MG xenograft, liver | intravenous, 2 h | – | tissue uptake | 1.55 ± 0.53 %ID/g |
| O=C1NC2(CC2)COc2ncc(F)cc2[C@H]2COCCN2c2ccn3ncc1c3n2 | – | – | Sprague-Dawley rat, female, serum | oral, 5 mg/kg/day, end of recovery, 4-week subacute toxicity | – | serum triglycerides | 0.37 ± 0.11 mmol/L |
| CC(=O)N[C@@H](CC(C)C)C(=O)N[C@H](C(=O)N[C@@H](Cc1ccccc1)C(=O)N[C@]1(C)CCCCCC/C=C/CCC[C@@](C)(C(=O)N[C@@H](C)C(=O)N[C@@H](C)C(=O)N[C@@H](C)C(=O)N[C@@H](C)C(=O)N[C@@H](C)C(=O)N[C@H](C)C(N)=O)NC(=O)[C@H](CC(C)C)NC(=O)[C@H](CCCCNC(=O)CCNC(=O)C[C@@H]2N=C(c3ccc(Cl)cc3)c3c(sc(C)c3C)-n3c(C)nnc32)NC(=O)[C@H](C)NC(=O)[C@H](Cc2c[nH]c3ccccc23)NC(=O)[C@H](Cc2ccc(O)cc2)NC(=O)[C@H](C)NC1=O)[C@@H](C)O | – | – | C57BL/6J mice, male, plasma | intravenous, 10 mg/kg, 5% DMSO, PEG400, Tween-80, methylcellulose | – | AUC(0-t) | 61.7 µM·h |
| CN(C)[C@H]1C[C@@]23CC[C@@]4(O2)C(=CC[C@]2(C)[C@@H](c5ccc6ccncc6c5)CC[C@H]24)C=C3[C@@H](O)[C@@H]1O | Serine/threonine-protein kinase 24 (STK24, Homo sapiens, UniProt Q9Y6E0) | ATP probe labelling, inhibitor, KiNativ profiling | – | 0.1 µM | – | inhibition | -1.7% |
| CSCC[C@@H]1NC(=O)[C@@H]2CCCN2C(=O)[C@H](C(C)C)NC(=O)[C@@H](NC(=S)Nc2ccc(CC3CN(CC(=O)O)CCN(CC(=O)O)CCN3CC(=O)O)cc2)CSSC[C@@H](C(=O)O)NC(=O)[C@H](C)NC(=O)[C@H](CCCNC(=N)N)NC(=O)[C@H](Cc2ccc(O)cc2)NC(=O)[C@H]([C@@H](C)O)NC1=O (stereo partly drawn) [gallium-68 labelled] | – | PET imaging | mouse bearing B16-F10 tumour | intravenous, 0.5 h | – | tumour uptake | 0.9 ± 0.06 %ID/g |

Repeated from above:
| Compound | tested on | test | test system | setting | how to read | quantity | result |
| --- | --- | --- | --- | --- | --- | --- | --- |
| Cc1cc(O)cc(C)c1C[C@H](N)C(=O)N[C@H](C)C(=O)N[C@@H](Cc1ccccc1)C(=O)N[C@@H](CCCN)C(=O)NCCCCCC(=O)N[C@@H](CCCCNC(=O)CN1CCN(CC(=O)O)CCN(CC(=O)O)CCN(CC(=O)O)CC1)C(N)=O [indium-111 labelled] | – | – | CD-1 mouse plasma | 30 min, 37 °C | – | unbound fraction | 0.686 |
| CCCC[C@H](NC(=O)CN1CCC(NC(=O)CN2CCN(CC(N)=O)CCN(CC(N)=O)CCN(CC(N)=O)CC2)CC1)C(=O)N[C@H]1CC(=O)NCCCC[C@@H](C(N)=O)NC(=O)[C@H](Cc2c[nH]c3ccccc23)NC(=O)[C@H](CCCNC(=N)N)NC(=O)[C@@H](Cc2ccccc2)NC(=O)[C@H](Cc2c[nH]cn2)NC1=O [lead-203 labelled] | – | SPECT/CT | male C57BL/6J mice, B16-F10 tumour, tumour | intravenous, 20 pmol, 2 h, 203Pb-labelled | – | SUVmean | 2.35 SUV |
